{"data": "Measurements pooled from the literature", "cell line": "OVCAR-3", "note": "Each line is one published result; not all experiments were run side by side. “And” joins repeats or separate records; there may be more than shown."}
{"Compound": "O=C(c1cc(Cc2n[nH]c(=O)c3ccccc23)ccc1F)N1CCN(C(=O)C2CC2)CC1", "quantity": "IC50", "result": "0.507 µM"}
{"Compound": "Cn1cncc1C1=CN(c2ncnc3[nH]cnc23)CCS1", "setting": "ovarian cancer", "quantity": "GI50", "result": "28.8 µM"}
{"Compound": "CSc1nc(-c2ccc(Cl)cc2)c2c(NC(=O)c3ccccc3)nnc-2[nH]1", "test": "SRB", "setting": "10 µM, NCI60 single-dose screen", "scale": "relative to: untreated", "quantity": "cell growth", "result": "112%"}
{"Compound": "CC(=O)O[C@H]1C(=O)[C@@]2(C)[C@H]([C@H](OC(=O)c3ccccc3)[C@]3(O)C[C@H](OC(=O)[C@H](O)[C@@H](NC(=O)c4ccccc4)c4ccccc4)C(C)=C1C3(C)C)[C@]1(OC(C)=O)CO[C@@H]1C[C@@H]2O", "test": "sulforhodamine B", "system": "Ovarian cancer", "setting": "NCI60 screen", "quantity": "TGI", "result": "0.16 µM"}
{"Compound": "CCn1cc(-c2cc(Cn3ccnc3)cc3c2CCN([C@H](c2cc(OC)ccn2)C2CC2)C3=O)c(C(F)(F)F)n1", "test": "cell growth, inhibitor", "setting": "120 h", "quantity": "EC50", "result": "2.32 µM"}
{"Compound": "CCCN1CCN(c2ccc3[nH]c(-c4ccc5[nH]c(-c6cc(OC)c(OC)c(OC)c6)nc5c4)nc3c2)CC1", "test": "SRB", "setting": "10 µM, 48 h", "quantity": "growth percent", "result": "76.9%"}
{"Compound": "O=C(Nc1nnc2[nH]c(=S)[nH]c(-c3ccc(Cl)cc3)c1-2)c1ccccc1", "test": "SRB", "setting": "10 µM, NCI60 single-dose screen", "scale": "relative to: untreated", "quantity": "cell growth", "result": "104%"}
{"Compound": "COc1ccc(OC)c(-c2nc3ccc(-c4nc5ccc(N6CCN(C)CC6)cc5[nH]4)cc3[nH]2)c1", "test": "SRB", "setting": "10 µM, 48 h", "quantity": "growth percent", "result": "111%"}
{"Compound": "C#C[C@@]1(O)[C@@H](CO)O[C@@H](n2cc(Cl)c3c(N)ncnc32)[C@@H]1O", "test": "SRB", "setting": "NCI-60 screen", "quantity": "TGI", "result": "1.6 µM and 2.01 µM"}
{"Compound": "CCN(CC)c1ccc(C=NNC(=O)CSc2nc3ccccc3c(=O)n2Cc2ccc(S(N)(=O)=O)cc2)c(O)c1", "test": "NCI five-dose screen", "quantity": "TGI", "result": "> 100 µM"}
{"Compound": "O=C(Nc1nnc2n3c(=S)[nH][nH]c3nc(-c3ccc(Cl)cc3)c1-2)c1ccccc1", "test": "SRB", "setting": "10 µM, NCI60 single-dose screen", "scale": "relative to: untreated", "quantity": "cell growth", "result": "118%"}
{"Compound": "CCCCN1CCN(c2ccc3[nH]c(-c4ccc5[nH]c(-c6ccc(OCC)c(OCC)c6)nc5c4)nc3c2)CC1", "test": "SRB", "setting": "10 µM, 48 h", "quantity": "growth percent", "result": "-87.3%"}
{"Compound": "C#C[C@@]1(O)[C@@H](CO)O[C@@H](n2cc(Br)c3c(N)ncnc32)[C@@H]1O", "test": "SRB", "setting": "NCI-60 screen", "quantity": "TGI", "result": "4.71 µM and 3.01 µM"}
{"Compound": "O=C1NCCc2[nH]c(-c3ccncc3)cc21", "test": "MTS", "setting": "NCI60 panel", "quantity": "IC50", "result": "2.52 µM"}
{"Compound": "NNc1nc(-c2ccc(Cl)cc2)c2c(NC(=O)c3ccccc3)nnc-2[nH]1", "test": "SRB", "setting": "10 µM, NCI60 single-dose screen", "scale": "relative to: untreated", "quantity": "cell growth", "result": "117%"}
{"Compound": "C=CCn1c(=O)c2cnc(Nc3ccc(N4CCN(C)CC4)cc3)nc2n1-c1ccc2c(n1)[C@@](O)(CC)CC2", "test": "flow cytometry", "setting": "1 µM, 24 h", "quantity": "γH2AX-positive cells", "result": "15%"}
{"Compound": "CCCCN1CCN(c2ccc3[nH]c(-c4ccc5[nH]c(-c6ccc(OCC)cc6)nc5c4)nc3c2)CC1", "test": "SRB", "setting": "10 µM, 48 h", "quantity": "growth percent", "result": "-18%"}
{"Compound": "O=C(Nc1nnc2n3c(Cc4ccccc4)n[nH]c3nc(-c3ccc(Cl)cc3)c1-2)c1ccccc1", "test": "SRB", "setting": "10 µM, NCI60 single-dose screen", "scale": "relative to: untreated", "quantity": "cell growth", "result": "109%"}
{"Compound": "CCOc1ccc(-c2nc3cc(-c4nc5cc(N6CCN(C)CC6)ccc5[nH]4)ccc3[nH]2)cc1OCC", "test": "SRB", "setting": "10 µM, 48 h", "quantity": "growth percent", "result": "-13.3%"}
{"Compound": "Cc1cc(=O)[nH]n1-c1nc(-c2ccc(Cl)cc2)c2c(NC(=O)c3ccccc3)nnc-2[nH]1", "test": "SRB", "setting": "10 µM, NCI60 single-dose screen", "scale": "relative to: untreated", "quantity": "cell growth", "result": "88.8%"}
{"Compound": "CCCCN1CCN(c2ccc3[nH]c(-c4ccc5[nH]c(-c6ccc(C(F)(F)F)cc6)nc5c4)nc3c2)CC1", "test": "SRB", "setting": "10 µM, 48 h", "quantity": "growth percent", "result": "-96.7%"}
{"Compound": "COc1ccc2c(c1)c(CC(=O)O)c(C)n2C(=O)c1ccc(Cl)cc1", "test": "WST-1", "setting": "up to 50 µM, 2 days", "quantity": "growth inhibition", "result": "no effect"}
{"note": "Some of these lines once more:"}
{"Compound": "C#C[C@@]1(O)[C@@H](CO)O[C@@H](n2cc(Br)c3c(N)ncnc32)[C@@H]1O", "test": "SRB", "setting": "NCI-60 screen", "quantity": "TGI", "result": "4.71 µM and 3.01 µM"}
